Measured values pooled from the literature.
Compare with care: the assays were run in different laboratories. ± gives the spread as reported.
UniProt Q9Y6E0, sequence (whole entry, looked up): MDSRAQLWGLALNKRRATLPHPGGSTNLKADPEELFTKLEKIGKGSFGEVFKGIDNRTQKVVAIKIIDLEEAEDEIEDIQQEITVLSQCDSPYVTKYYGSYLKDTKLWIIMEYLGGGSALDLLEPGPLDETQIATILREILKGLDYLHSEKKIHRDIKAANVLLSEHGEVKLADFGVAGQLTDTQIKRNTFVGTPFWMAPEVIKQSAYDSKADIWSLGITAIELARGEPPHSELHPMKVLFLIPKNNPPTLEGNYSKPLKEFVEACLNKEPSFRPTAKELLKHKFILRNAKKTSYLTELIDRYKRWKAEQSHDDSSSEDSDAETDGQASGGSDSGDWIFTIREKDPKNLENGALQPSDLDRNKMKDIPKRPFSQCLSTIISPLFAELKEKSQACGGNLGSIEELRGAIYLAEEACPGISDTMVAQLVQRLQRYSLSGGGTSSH
UniProt Q9Y2K6, sequence (whole entry, looked up): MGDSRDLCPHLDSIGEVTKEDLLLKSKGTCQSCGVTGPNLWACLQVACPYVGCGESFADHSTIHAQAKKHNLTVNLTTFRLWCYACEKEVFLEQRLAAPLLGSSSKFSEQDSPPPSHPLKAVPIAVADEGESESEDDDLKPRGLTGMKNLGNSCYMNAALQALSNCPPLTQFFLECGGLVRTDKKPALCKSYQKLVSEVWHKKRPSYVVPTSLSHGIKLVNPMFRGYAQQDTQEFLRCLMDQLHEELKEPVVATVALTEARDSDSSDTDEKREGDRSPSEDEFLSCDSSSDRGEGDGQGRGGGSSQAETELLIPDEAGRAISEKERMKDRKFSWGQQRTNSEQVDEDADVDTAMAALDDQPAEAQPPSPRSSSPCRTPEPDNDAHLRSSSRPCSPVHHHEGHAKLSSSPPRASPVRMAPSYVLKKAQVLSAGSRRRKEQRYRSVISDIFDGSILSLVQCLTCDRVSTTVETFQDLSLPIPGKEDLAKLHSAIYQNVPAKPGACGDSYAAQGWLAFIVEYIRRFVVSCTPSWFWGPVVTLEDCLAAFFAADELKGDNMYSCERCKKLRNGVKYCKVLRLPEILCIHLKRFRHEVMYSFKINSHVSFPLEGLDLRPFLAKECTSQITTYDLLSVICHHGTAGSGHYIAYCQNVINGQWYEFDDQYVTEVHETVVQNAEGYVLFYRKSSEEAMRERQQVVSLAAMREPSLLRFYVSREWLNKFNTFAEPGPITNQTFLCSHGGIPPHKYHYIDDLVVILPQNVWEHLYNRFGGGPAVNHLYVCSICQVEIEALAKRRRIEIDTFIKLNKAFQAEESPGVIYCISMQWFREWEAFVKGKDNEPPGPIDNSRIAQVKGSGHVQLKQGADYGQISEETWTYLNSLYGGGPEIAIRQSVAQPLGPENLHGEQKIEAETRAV

C=CC(=O)Nc1cc2c(Nc3ccc(F)c(Cl)c3)ncnc2cc1OCCCN1CCOCC1 — beat rate (iCell Cardiomyocytes (hiPSC-derived); xCELLigence Cardio impedance; concentration not given, 2 h; relative to: control): 90.7%
CC(C)C[C@H](NC(=O)C[C@H](O)[C@H](CC(C)C)NC(=O)[C@H](Cc1c[nH]cn1)NC(=O)CNC(=O)[C@@H](NC(=O)[C@H](C)NC(=O)[C@H](Cc1c[nH]c2ccccc12)NC(=O)[C@H](CCC(N)=O)NC(=O)[C@@H](Cc1ccccc1)NC(=O)COCCOCCNC(=O)CCC(C(=O)O)N1CCN(CC(=O)O)CCN(CC(=O)O)CCN(CC(=O)O)CC1)C(C)C)C(N)=O (some centres unmarked) [lutetium-177 labelled] — tissue uptake (female BALB/c nu/nu mice, blood; intravenous, 100 pmol, 48 h, added: PA 300 µg): 0.0023 ± 0.0007 %ID/g
Cc1cn(-c2cc(NC(=O)c3ccc(C)c(Nc4nccc(-c5cccnc5)n4)c3)cc(C(F)(F)F)c2)cn1 — cell index (iCell Cardiomyocytes (hiPSC-derived); cellular impedance; concentration not given, 24 h; relative to: control): 103%
CCn1c(-c2nonc2N)nc2cncc(CNC3CCNCC3)c21 — relative cell number (SK-OV-3; ATP; 2D monolayer culture; 0.01 µM, 4 days; relative to: untreated): 119%
CCn1cc(-c2cc(Cn3ccoc3=N)cc3c2CCN([C@@H](C)c2cc(OC)ccn2)C3=O)c(C(F)(F)F)n1 — EC50 (CFPAC-1; cell growth, inhibitor; 120 h): > 30 µM
Cc1cc(Nc2ccc(S(F)(F)(F)(F)F)cc2)n2nc(C(C)(F)F)nc2n1 — terminal half-life (Plasmodium falciparum; LC-MS/MS; malaria patients, plasma; oral, 400 mg): 96.7 h
Cc1cc(Nc2ncc(Cl)c(Nc3ccccc3S(=O)(=O)C(C)C)n2)c(OC(C)C)cc1C1CCNCC1 — log2 fold change (CLB-BAR; phosphoproteomics LC-MS/MS, measured: AKT1 phosphorylation; 200 nM, 60 min; relative to: untreated): -5.99
CN1CC[C@H](c2c(O)cc(O)c3c(=O)cc(-c4ccccc4Cl)oc23)[C@H](O)C1 — beat rate (iCell Cardiomyocytes (hiPSC-derived); xCELLigence Cardio impedance; concentration not given, 2 h; relative to: control): 77.1%
Cn1cc(-c2ccc(-c3cncc(Cl)c3N3CCC4(CCNC4=O)CC3)cc2)cn1 — log2 fold change (COLO 205; gene expression, microarray, measured: SDC4 mRNA; concentration not given, 6 h; relative to: untreated cells): 2.9
NCCS — z-scored log2 fold change (binding, equilibrium dialysis LC-MS; 5 µM, thermostabilized A2AR-BRIL construct; relative to: no-protein control, direction not given): 0.187
CCN1CCN(Cc2ccc(NC(=O)Nc3ccc(Oc4cc(NC)ncn4)cc3)cc2C(F)(F)F)CC1 — beat rate (iCell Cardiomyocytes (hiPSC-derived); xCELLigence Cardio impedance; concentration not given, 2 h; relative to: control): 77.4%
N=C(N)NCCC[C@@H](NC(=O)CCOCCOCCNC(=O)[C@H](CCCCNC(=O)CC[C@H](NC(=O)c1ccc(NCc2cnc3nc(N)[nH]c(=O)c3n2)cc1)C(=O)O)NC(=O)CO/N=C/[C@H](F)[C@@H](O)[C@H](O)[C@H](O)CO)C(=O)NCC(=O)N[C@H](CC(=O)O)C(N)=O [fluorine-18 labelled] — tissue uptake (female nude mouse, liver; intravenous, 1 µg, 0.75 h): 1.1 ± 0.22 %ID/g
CCNCCc1ccc(CN(CC)c2cc(OC)ccc2[C@@H]2CCc3cc(O)ccc3C2)cc1 — maximum inhibition (MCF7/luciferase, wild type; cell proliferation): 74.7%
CCn1cc(-c2cc(Cn3ccnc3)cc3c2CCN([C@H](c2cc(OC)ccn2)C2CC2)C3=O)c(C(F)(F)F)n1 — EC50 (HuH-1; cell growth, inhibitor; 120 h): 26.6 µM
CC[C@@H]1[C@H](F)C(=O)N[C@@H]1COc1nccc2cc(C(N)=O)c(OC)cc12 — inhibition (STK24 (Homo sapiens, UniProt Q9Y6E0); ATP-site probe binding, ActivX profiling, measured: MST3; THP-1 cell lysate; 0.01 mM, Lys1 site): 3.4%
O=C(/C=C/C=C/C=C/C1CCCCC1)NC1=C[C@@](O)(/C=C/C=C/C=C/C(=O)NC2=C(O)CCC2=O)[C@@H]2O[C@@H]2C1=O — GI50 (CFPAC-1; cell growth, CellTiter-Glo; 78 h): > 30 µM
CC1(C)CCC(CN2CCN(c3ccc(C(=O)NS(=O)(=O)c4ccc(NCC5CCOCC5)c([N+](=O)[O-])c4)c(Oc4cnc5[nH]ccc5c4)c3)CC2)=C(c2ccc(Cl)cc2)C1 — early apoptotic cells (THP-1; annexin V/PI flow cytometry, measured: annexin V+/PI-; 1.6 µM, 24 h): 3.3%
COc1ccc(NC(=S)N/N=C/c2cccc3cc4ccccc4nc23)cc1 — mitochondrial membrane potential (HeLa; TMRE flow cytometry; IC25, 48 h, unit not given; relative to: DMSO control): 1.69 ± 0.49
CC(C)C[C@@H](O)C(=O)O — z-scored log2 fold change (binding, equilibrium dialysis LC-MS; 5 µM, thermostabilized A2AR-BRIL construct; relative to: no-protein control, direction not given): -0.579
Clc1ccc(C2(c3ccc(-c4cn[nH]c4)cc3)CCNCC2)cc1 — relative cell number (SK-OV-3; ATP; 0.1 µM, 4 days, 3D U-bottom low-attachment; relative to: untreated): 122%
N#CC[C@H](C1CCCC1)n1cc(-c2ncnc3[nH]ccc23)cn1 — beat amplitude (iCell Cardiomyocytes (hiPSC-derived); xCELLigence Cardio impedance; concentration not given, 2 h; relative to: control): 105%
COc1cnc2cccc(N3CCc4c(cc(Cn5ccnc5C)cc4-c4cn(C)nc4C(F)(F)F)C3=O)c2c1 — EC50 (LUDLU-1; cell growth, inhibitor; 120 h): > 30 µM
O=C(O)CCC(=O)c1ccc(S(=O)(=O)N2CCCC2)cc1 — Kd (Ubiquitin carboxyl-terminal hydrolase 20, ZnF-UBD domain (USP20, Homo sapiens, UniProt Q9Y2K6)): 798 µM
